Results gathered from unrelated publications.
Every numbered part comes from another study and shows a few of its results, in no order. Values joined by “and” are separate records of one study, mostly repeats; a detail may differ.
Sequence of UniProt P42679 (whole entry, looked up): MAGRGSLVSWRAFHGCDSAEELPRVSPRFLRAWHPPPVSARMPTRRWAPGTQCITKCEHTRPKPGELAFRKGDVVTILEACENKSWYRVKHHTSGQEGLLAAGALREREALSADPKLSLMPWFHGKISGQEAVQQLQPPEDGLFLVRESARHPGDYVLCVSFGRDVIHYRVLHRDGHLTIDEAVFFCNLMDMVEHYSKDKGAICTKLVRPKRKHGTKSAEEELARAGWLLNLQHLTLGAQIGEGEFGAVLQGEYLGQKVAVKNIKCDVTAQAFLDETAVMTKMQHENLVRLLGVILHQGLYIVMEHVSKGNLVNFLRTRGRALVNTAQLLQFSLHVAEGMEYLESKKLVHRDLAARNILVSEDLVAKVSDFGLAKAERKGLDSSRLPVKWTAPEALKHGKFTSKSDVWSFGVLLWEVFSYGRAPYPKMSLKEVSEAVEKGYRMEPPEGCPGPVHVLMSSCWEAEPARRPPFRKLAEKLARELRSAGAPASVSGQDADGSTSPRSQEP
Sequence of UniProt P45985 (whole entry, looked up): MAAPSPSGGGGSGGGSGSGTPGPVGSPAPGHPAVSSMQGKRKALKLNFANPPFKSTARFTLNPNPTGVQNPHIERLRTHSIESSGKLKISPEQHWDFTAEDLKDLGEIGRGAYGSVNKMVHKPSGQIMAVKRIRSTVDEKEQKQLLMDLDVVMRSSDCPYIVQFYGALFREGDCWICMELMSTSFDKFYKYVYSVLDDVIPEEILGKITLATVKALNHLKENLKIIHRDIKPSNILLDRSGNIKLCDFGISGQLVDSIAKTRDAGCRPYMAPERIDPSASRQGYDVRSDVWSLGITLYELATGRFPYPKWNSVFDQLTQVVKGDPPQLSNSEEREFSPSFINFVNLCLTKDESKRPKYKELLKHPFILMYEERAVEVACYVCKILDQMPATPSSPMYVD
Sequence of UniProt P08069 (whole entry, looked up): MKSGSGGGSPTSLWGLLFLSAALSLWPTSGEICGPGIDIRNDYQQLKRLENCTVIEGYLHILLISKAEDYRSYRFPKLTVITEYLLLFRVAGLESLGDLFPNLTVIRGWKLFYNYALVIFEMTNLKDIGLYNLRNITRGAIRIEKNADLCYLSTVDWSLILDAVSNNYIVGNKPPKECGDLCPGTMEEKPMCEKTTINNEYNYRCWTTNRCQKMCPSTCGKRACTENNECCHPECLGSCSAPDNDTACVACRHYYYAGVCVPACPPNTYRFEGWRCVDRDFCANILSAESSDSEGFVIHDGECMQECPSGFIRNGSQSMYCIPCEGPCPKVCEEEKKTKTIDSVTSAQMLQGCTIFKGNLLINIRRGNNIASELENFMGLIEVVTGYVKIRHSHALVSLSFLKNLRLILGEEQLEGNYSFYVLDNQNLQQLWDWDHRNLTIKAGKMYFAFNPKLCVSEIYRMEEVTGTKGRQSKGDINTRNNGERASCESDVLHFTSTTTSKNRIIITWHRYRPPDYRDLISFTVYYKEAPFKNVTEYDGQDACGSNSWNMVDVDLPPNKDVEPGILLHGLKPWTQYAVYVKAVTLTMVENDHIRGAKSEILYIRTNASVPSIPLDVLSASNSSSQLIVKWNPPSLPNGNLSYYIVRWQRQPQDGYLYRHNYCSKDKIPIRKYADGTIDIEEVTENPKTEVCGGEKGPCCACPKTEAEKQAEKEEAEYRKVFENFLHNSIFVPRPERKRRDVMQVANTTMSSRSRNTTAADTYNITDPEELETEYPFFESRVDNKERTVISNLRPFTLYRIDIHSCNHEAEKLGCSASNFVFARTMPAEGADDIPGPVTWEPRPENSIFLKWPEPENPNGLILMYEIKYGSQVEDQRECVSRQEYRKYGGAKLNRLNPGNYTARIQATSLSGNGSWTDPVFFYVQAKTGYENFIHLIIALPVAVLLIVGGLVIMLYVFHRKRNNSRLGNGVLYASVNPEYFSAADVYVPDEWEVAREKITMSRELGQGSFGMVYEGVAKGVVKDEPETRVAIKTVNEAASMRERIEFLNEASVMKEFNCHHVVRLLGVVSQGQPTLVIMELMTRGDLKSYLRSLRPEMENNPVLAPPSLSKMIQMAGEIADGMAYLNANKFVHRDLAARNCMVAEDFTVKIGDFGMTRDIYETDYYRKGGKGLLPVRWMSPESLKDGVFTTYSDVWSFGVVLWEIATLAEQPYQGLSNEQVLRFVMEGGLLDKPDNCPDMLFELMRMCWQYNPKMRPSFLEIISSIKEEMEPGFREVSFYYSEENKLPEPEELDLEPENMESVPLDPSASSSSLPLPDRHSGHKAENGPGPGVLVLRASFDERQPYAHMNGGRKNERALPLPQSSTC
Sequence of UniProt O75676 (whole entry, looked up): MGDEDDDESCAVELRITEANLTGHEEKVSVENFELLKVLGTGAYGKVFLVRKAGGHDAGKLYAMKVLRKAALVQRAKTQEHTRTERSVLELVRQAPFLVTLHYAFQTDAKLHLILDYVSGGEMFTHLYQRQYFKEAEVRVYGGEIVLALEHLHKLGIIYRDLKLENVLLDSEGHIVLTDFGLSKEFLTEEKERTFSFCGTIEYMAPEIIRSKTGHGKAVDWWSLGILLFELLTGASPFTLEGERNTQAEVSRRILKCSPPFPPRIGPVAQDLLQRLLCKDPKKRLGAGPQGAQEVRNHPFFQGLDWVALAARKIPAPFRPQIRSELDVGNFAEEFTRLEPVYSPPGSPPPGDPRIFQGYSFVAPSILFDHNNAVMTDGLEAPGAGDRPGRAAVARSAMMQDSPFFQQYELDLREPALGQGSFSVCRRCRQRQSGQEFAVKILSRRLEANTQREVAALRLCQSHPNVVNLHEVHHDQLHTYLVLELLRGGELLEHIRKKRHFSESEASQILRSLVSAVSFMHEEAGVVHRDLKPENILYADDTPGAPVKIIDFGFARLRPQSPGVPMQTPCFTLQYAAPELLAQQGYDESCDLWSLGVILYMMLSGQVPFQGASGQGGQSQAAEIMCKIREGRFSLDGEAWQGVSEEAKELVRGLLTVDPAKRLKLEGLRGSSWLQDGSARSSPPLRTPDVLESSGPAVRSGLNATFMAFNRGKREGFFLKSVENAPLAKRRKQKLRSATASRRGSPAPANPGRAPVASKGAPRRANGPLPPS
Sequence of UniProt Q99683 (whole entry, looked up): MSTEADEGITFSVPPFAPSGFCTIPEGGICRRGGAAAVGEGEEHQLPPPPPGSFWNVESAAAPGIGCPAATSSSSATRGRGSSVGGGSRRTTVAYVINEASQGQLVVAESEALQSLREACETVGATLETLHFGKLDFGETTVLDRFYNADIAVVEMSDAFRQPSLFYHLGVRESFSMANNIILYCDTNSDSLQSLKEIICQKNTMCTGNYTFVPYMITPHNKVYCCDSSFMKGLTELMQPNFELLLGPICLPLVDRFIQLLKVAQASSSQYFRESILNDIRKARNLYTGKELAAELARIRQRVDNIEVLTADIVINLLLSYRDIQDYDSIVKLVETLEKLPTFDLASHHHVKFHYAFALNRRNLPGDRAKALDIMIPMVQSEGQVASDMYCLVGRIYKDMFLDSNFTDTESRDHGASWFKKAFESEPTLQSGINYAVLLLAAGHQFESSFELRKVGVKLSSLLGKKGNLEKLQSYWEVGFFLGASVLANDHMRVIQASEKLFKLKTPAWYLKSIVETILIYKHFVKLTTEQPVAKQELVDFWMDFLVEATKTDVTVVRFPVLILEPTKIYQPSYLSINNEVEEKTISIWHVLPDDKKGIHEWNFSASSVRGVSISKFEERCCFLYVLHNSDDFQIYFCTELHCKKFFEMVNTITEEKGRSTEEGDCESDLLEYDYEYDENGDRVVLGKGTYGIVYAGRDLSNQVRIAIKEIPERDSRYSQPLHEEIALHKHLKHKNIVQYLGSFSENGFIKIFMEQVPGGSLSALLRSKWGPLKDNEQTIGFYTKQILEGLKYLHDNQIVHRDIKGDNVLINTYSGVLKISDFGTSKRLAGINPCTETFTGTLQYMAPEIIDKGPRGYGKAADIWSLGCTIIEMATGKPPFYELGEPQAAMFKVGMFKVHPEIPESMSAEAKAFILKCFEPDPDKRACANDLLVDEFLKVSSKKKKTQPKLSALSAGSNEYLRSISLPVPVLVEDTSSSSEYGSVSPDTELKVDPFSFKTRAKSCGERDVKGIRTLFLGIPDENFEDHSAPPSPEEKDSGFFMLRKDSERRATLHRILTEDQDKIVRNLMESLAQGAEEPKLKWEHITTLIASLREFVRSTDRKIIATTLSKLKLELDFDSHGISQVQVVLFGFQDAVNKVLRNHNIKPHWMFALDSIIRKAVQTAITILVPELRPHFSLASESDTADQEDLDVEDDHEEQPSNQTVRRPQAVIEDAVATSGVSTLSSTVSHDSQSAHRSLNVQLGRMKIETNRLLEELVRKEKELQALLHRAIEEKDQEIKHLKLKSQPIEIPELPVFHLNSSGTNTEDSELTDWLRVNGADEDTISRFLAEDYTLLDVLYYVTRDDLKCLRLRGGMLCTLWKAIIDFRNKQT
Sequence of UniProt P11802 (whole entry, looked up): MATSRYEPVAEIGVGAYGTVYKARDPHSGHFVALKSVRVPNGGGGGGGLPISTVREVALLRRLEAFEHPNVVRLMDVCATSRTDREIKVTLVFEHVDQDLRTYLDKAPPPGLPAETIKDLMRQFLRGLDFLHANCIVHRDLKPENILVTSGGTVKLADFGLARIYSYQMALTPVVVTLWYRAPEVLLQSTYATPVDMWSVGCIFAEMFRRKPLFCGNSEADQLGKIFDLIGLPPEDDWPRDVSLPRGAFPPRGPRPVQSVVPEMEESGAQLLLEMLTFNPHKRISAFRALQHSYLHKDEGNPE

Sample 1
Structure (SMILES): O=C1NC(=O)C(c2cn(-c3ccccc3)nc2-c2ccc(F)cc2)N1 (centres unmarked)
Mode: inhibitor
Concentration: 5 µM
target	assay	system	setting	scale	log2 fold change
TAOK3 (Homo sapiens, UniProt Q9H2K8)	kinase-CDC37 interaction	human cells	–	reference: vehicle	-0.096
EGFR (Homo sapiens, UniProt P00533, T790M)	kinase–CDC37 interaction	–	EGFR T790M oncogenic mutant	reference: vehicle control	-0.335
RAF1 (Homo sapiens, UniProt P04049)	kinase activity	–	cell-based kinome screen	reference: vehicle	-0.276
EIF2AK2 (Homo sapiens, UniProt P19525)	kinase–CDC37 interaction	–	kinome plate 1@G07	reference: vehicle control	-0.368
MATK (Homo sapiens, UniProt P42679)	cell-based kinome screen	human cells	–	reference: untreated control	-0.031 log2

Sample 2
Organism: Sarcocystis neurona
Observed: parasite growth
Concentration: 10 µM
Time: 96 h
Setting: first screen
Reference: untreated
SMILES	log2 fold change
CCCCC(=O)N(Cc1ccc(-c2ccccc2-c2nnn[nH]2)cc1)[C@H](C(=O)O)C(C)C	-0.14
CC(=O)O[C@]1(C(C)=O)CC[C@H]2[C@@H]3C[C@H](C)C4=CC(=O)CC[C@]4(C)[C@H]3CC[C@@]21C	0.17
CC(C)[C@H](N)C(=O)OCCOCn1cnc2c(=O)[nH]c(N)nc21	-0.12
CC(C)NCC(O)COc1cccc2[nH]ccc12 (centres unmarked)	0.39
CCOC(=O)[C@H](CCc1ccccc1)N[C@H]1CCc2ccccc2N(CC(=O)O)C1=O	0.22
Nc1nc(N)c2nc(-c3ccccc3)c(N)nc2n1	0.57
CC(CCc1ccccc1)NCC(O)c1ccc(O)c(C(N)=O)c1 (centres unmarked)	0.21
CSc1nc2cc(Cl)c(Oc3cccc(Cl)c3Cl)cc2[nH]1	-0.51

Sample 3
Cell line: mouse MPNST tumor cells
Method: high-content immunofluorescence imaging
Refers to: nuclear SOX9
Concentration: 10 µM
Time: 12 h
Setting: mean of 2 replicates
Reference: DMSO control
Reading: higher = more nuclear SOX9
SMILES	nuclear SOX9 intensity
CN1CCCC(n2nc(Cc3ccc(Cl)cc3)c3ccccc3c2=O)CC1 (centres unmarked)	212 % of DMSO
CC(C)C[C@@H](C(=O)N[C@@H](Cc1ccc(OCc2ccccc2)cc1)C(=O)NC(C)(C)C)N(C)Cc1ccc(C(C)(C)C)cc1	110 % of DMSO
Cc1cc(C)c(N)c(C#Cc2cccc(F)c2)n1	109 % of DMSO
CC(C)(Oc1ccc(Cl)cc1)C(=O)O	90.4 % of DMSO and 91.1 % of DMSO
OCC1OC(n2cnc3c(NC4CCCC4)nc(Cl)nc32)C(O)C1O (centres unmarked)	97 % of DMSO
O=c1[nH]nc(Sc2ncc([N+](=O)[O-])s2)n1-c1ccc2c(c1)OCCO2	134 % of DMSO
Cc1cc(CC(=O)O)n(C)c1C(=O)c1ccc(Cl)cc1	93.6 % of DMSO
CCCCNNC(=O)c1ccc(Br)cc1	133 % of DMSO

Sample 4
Compound: CCC(=O)N[C@H]1CC[C@@H](C(=O)N(C)c2ccc(-c3nc4ccccc4o3)cc2)C1
Observed: cell-free assay
Method: competition with immobilised ligand
Concentration: 1 µM
target	remaining binding
Ribosomal protein S6 kinase alpha-1, N-terminal kinase domain (RPS6KA1, Homo sapiens, UniProt Q15418)	100%
IGF1R (Homo sapiens, UniProt P08069)	100%
Ribosomal protein S6 kinase alpha-4, C-terminal kinase domain (RPS6KA4, Homo sapiens, UniProt O75676)	79%
MET (Homo sapiens, UniProt P08581)	100%
CSNK1D (Homo sapiens, UniProt P48730)	96%
PRKAA1 (Homo sapiens, UniProt Q13131)	99%
FES (Homo sapiens, UniProt P07332)	73%
MAP3K5 (Homo sapiens, UniProt Q99683)	100%
PRKCH (Homo sapiens, UniProt P24723)	96%
ACVR1 (Homo sapiens, UniProt Q04771)	85%
CAMKK1 (Homo sapiens, UniProt Q8N5S9)	85%
MAP2K4 (Homo sapiens, UniProt P45985)	95%
MAP3K7 (Homo sapiens, UniProt O43318)	86%
Cyclin-dependent kinase 4, with cyclin D3 (CDK4, Homo sapiens, UniProt P11802)	88%

Repeated from above (sample 4):
target	remaining binding
CSNK1D (Homo sapiens, UniProt P48730)	96%
Cyclin-dependent kinase 4, with cyclin D3 (CDK4, Homo sapiens, UniProt P11802)	88%
